Experimental data pooled from the literature.
Compare with care: the assays were run in different laboratories. ± marks the error that the study gave.

| SMILES | test | test system | conditions | how to read | measurement | value |
| --- | --- | --- | --- | --- | --- | --- |
| O=c1ccc2ccc3occc3c2o1 | – | rat plasma | 200 ng/mL, 2 weeks, -70 °C, post-preparative stability | – | accuracy | 104% |
| CCCCCOc1ccc(-c2ccc(-c3ccc(C(=O)N[C@H]4C[C@@H](O)[C@@H](OCC[N+](C)(C)C)NC(=O)[C@@H]5[C@@H](O)[C@@H](C)CN5C(=O)[C@H]([C@@H](C)O)NC(=O)[C@H]([C@H](O)[C@@H](O)c5ccc(O)cc5)NC(=O)[C@@H]5C[C@@H](O)CN5C(=O)[C@H]([C@@H](C)O)NC4=O)cc3)cc2)cc1 | – | adult patients not in ICU, plasma | intravenous, 400 mg loading dose, after first dose, arithmetic mean | – | Cmin | 2360 ng/mL |
| O=C(O)CCCOc1ccc(F)cc1-c1cc(-c2ccccc2C(F)(F)F)n(-c2ccccc2)n1 | – | male Crl:CD(SD) rats, prostate | intravenous, 25 µg/kg, 14 d | – | relative organ weight | 0.12 ± 0.03 g% |
| O=c1ccc2ncc(=O)n3c2n1C[C@H]3CN1CCC(NCc2cc3c(cn2)OCCC3)CC1 | – | healthy human volunteers, urine | oral, dose not given, 24 h postdose, together with: rifampicin | – | urine concentration | > 4 µg/mL |
| [Cl][212Pb][Cl] | refers to: 212Pb | athymic mouse, C4-2 prostate xenograft, prostate | intravenous, 2 h | – | tissue uptake | 1.04 ± 0.36 %ID/g |
| C[C@]1(CO)Cc2ncn(-c3ccc(C#N)c(Cl)c3)c2C(=O)O1 | – | human, Chinese | 60 mg single dose | – | subjects with any TEAE | 16.7% |
| CC(C)[C@@H]1NC(=O)CNC(=O)[C@H](CC(N)=O)NC(=O)[C@H](CCCNC(=N)N)NC(=O)[C@H](Cc2ccc(O)cc2)NC(=O)[C@H](C(C)C)NC(=O)[C@@H](NC(=O)[C@@H](NC(=O)[C@H](CC(N)=O)NC(=O)[C@H](Cc2c[nH]c3ccccc23)NC(=O)[C@H](C)NC(=O)[C@H](Cc2ccccc2)NC(=O)CN)C(C)C)CSSC[C@@H](C(=O)N[C@@H](Cc2cnc[nH]2)C(=O)N[C@@H](CCCNC(=N)N)C(=O)N[C@@H](CCCNC(=N)N)C(=O)N[C@@H](C)C(=O)N[C@@H](CC(N)=O)C(N)=O)NC(=O)[C@H](C(C)C)NC(=O)[C@H](CCCNC(=N)N)NC1=O | – | ICR mouse | ip, 10 mg/kg | direction not given | spasm score | 0 |
| CC(C)(O)c1cc(Nc2cc(Oc3cn(C4CC4)nc3C3CCOCC3)ccn2)ccn1 | – | grade 4 glioma expansion cohort | oral, 50 mg twice daily | – | ALT increased, grade ≥3 | 0% |
| Clc1ccc(-c2ccccc2)cc1 | – | Sprague-Dawley rats, female, serum | inhalation, 23 µg/rat, 2 h after exposure | – | phosphorus | 10 ± 4 mg/dL |
| C[C@]1(O)C[C@@](N)(c2ccc(-c3nc4n(c3-c3ccccc3)COc3ccncc3-4)cc2)C1 | – | human, advanced or metastatic solid tumours | 16 mg once daily, dose-ranging cohort | – | patients with AST increased TEAE | 100% |
| CC(C)Nc1ccnc(Nc2cccc(-c3cccnc3)c2)n1 | refers to: globulin | mouse, blood | intraperitoneal, 3 mg/kg | – | blood chemistry | 1.8 g/dL |
| C=CCNc1c(O)cc2c(O)c1C[C@@H](C)C[C@H](OC)[C@H](O)[C@@H](C)/C=C(\C)[C@H](OC(N)=O)[C@@H](OC)/C=C\C=C(/C)C(=O)N2 | refers to: Vomiting | unresectable or metastatic GIST/STS | intravenous, dose not given, all doses | – | patients with TEAE | 37% |
| COc1cc2c(Oc3ccc4[nH]c(C)cc4c3F)ccnc2cc1OCC1(N)CC1 | refers to: grade 3 weight loss | paediatric high-risk refractory sarcoma | 8 mg | – | incidence of adverse event | 0% |
| C[C@@H](NC(=O)N1C(=O)[C@H](Cc2ccnc(N)c2)[C@H]1C(=O)O)C1CCCCC1 | – | healthy adult Chinese volunteers | continuous intravenous infusion, 1.0 mg/kg/h, 5-day infusion, CTCAE 5.0 grading | – | incidence of abnormal liver function | 0% |
